# Experimental data collected from several papers.
# Lines come from different studies, so protocols differ. ± marks the error that the study gave.
SMILES,test system,setting,Tmax [h]
COc1cc(C)[nH]c(=O)c1CN1CCc2c(Cl)cc([C@H](OC)C3COC3)c(Cl)c2C1=O,"female CB17 SCID mouse, HT-1376 xenograft, plasma","75 mg/kg, day 1",0.5
COc1ccc2nc(-c3ccccn3)c(N(C)c3ccc(F)cc3)n2c1,"CD1 mouse, male, fasted, plasma","oral, 50 mg/kg, together with: ABT 50 mg/kg",0.25
CC[C@H](C)[C@@H]1NC(=O)[C@@](C)(NC(=O)[C@H](CCCNC(=N)N)NC(=O)[C@H](CC(C)C)NC(=O)[C@@H](NC(=O)[C@H](CCC(N)=O)NC(=O)[C@H](CC(C)C)NC(C)=O)[C@@H](C)O)CCCC=CCCC[C@@](C)(C(=O)N[C@@H](CC(C)C)C(=O)N[C@@H](Cc2ccc3ccccc3c2)C(N)=O)NC(=O)[C@H](CCCNC(=N)N)NC(=O)[C@H](CCC(N)=O)NC1=O,BALB/c mouse,"intraperitoneal, 5 mg/kg",2
O=C(O)C[C@H](O)C[C@H](O)/C=C/c1c(C2CC2)nc2ccccc2c1-c1ccc(F)cc1,"FVB wild-type mouse, plasma","oral, 5 mg/kg, together with: silymarin 500 mg/kg oral",0.5
Cc1cc(NC2Cc3cc(F)c(F)cc3C2)n2nc(C(C)(F)F)nc2n1,"NSG mouse, whole blood","oral, 10 mg/kg",8
c1csc(CNc2cc[nH]n2)c1,"male CD-1 mouse, plasma","oral, 20 mg/kg, hydrochloride salt",0.25
CN[C@H](CC(C)C)C(=O)N[C@H]1C(=O)N[C@@H](CC(N)=O)C(=O)N[C@H]2C(=O)N[C@H]3C(=O)N[C@H](C(=O)N[C@H](C(=O)O)c4cc(O)cc(O)c4-c4cc3ccc4O)[C@H](O)c3ccc(c(Cl)c3)Oc3cc2cc(c3O[C@@H]2O[C@H](CO)[C@@H](O)[C@H](O)[C@H]2O[C@H]2C[C@](C)(N)[C@H](O)[C@H](C)O2)Oc2ccc(cc2Cl)[C@H]1O,"C57BL/6N mouse H1, faeces","po, 0.5 mL, 20 mg/mL solution",36
CN1CCN(C(=O)c2cc3c(Nc4ccc(OC(F)(F)F)cc4)ncnc3s2)CC1,"male BALB/c mouse, plasma","oral, 20 mg/kg",0.5
CN1CCC[C@H](CN2c3ccccc3Sc3ccccc32)C1.Cl,"ICR mouse female fasted, lung","oral, 16 mg/kg",1
CCOC(=O)C1=C(CN2CCC[C@@H]2C(=O)Nc2ccc(B(O)O)cc2)NC(c2nccs2)=N[C@H]1c1ccc(F)cc1Br,"ICR mouse, plasma","intravenous, 2 mg/kg",0.08
CN1CCCC1CCNS(=O)(=O)c1ccc2c(c1)CN(CC1CCCCC1)CC2 (centres unmarked),"mouse, plasma","oral, 10 mg/kg",1
CC(=O)NCc1cc2c(cc1F)C(=O)N(C1CCC(=O)NC1=O)C2 (centres unmarked),"male CD-1 mouse, plasma","oral, 10 mg/kg of parent drug",1.3 ± 0.6
Cc1cc(N[C@H]2CCc3ccc(Cl)cc3C2)n2nc(C(C)(F)F)nc2n1,"NSG mouse, whole blood","oral, 10 mg/kg",4
NS(=O)(=O)c1ccc(-c2cc(Nc3ccc(OC(F)(F)F)cc3)ncn2)cc1,"male BALB/c mouse, plasma","oral, 20 mg/kg",1
